Measured values collected from several papers.
A part holds a random share of what one study measured.
Sequence of UniProt Q9P0L2 (whole entry, looked up): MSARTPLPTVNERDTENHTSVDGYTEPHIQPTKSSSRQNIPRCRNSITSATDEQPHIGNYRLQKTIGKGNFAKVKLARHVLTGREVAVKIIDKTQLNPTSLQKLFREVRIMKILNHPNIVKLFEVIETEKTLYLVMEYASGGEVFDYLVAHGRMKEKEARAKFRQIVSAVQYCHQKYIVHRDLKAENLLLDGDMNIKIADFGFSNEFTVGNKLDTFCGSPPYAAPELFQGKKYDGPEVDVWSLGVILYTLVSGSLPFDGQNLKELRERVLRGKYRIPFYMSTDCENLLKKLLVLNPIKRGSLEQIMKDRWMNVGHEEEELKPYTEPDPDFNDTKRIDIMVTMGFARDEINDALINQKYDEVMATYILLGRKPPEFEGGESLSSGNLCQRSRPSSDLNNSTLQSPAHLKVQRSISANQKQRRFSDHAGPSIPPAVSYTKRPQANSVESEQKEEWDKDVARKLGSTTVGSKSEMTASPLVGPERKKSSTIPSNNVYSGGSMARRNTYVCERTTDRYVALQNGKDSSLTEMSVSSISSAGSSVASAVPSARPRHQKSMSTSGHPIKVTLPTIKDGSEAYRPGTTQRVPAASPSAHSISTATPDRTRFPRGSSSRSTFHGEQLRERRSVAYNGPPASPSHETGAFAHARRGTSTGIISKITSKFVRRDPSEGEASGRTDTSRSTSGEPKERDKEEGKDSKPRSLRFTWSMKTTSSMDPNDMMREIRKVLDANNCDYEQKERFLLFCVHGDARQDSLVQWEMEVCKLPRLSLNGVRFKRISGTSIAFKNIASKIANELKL
Sequence of UniProt P10721 (whole entry, looked up): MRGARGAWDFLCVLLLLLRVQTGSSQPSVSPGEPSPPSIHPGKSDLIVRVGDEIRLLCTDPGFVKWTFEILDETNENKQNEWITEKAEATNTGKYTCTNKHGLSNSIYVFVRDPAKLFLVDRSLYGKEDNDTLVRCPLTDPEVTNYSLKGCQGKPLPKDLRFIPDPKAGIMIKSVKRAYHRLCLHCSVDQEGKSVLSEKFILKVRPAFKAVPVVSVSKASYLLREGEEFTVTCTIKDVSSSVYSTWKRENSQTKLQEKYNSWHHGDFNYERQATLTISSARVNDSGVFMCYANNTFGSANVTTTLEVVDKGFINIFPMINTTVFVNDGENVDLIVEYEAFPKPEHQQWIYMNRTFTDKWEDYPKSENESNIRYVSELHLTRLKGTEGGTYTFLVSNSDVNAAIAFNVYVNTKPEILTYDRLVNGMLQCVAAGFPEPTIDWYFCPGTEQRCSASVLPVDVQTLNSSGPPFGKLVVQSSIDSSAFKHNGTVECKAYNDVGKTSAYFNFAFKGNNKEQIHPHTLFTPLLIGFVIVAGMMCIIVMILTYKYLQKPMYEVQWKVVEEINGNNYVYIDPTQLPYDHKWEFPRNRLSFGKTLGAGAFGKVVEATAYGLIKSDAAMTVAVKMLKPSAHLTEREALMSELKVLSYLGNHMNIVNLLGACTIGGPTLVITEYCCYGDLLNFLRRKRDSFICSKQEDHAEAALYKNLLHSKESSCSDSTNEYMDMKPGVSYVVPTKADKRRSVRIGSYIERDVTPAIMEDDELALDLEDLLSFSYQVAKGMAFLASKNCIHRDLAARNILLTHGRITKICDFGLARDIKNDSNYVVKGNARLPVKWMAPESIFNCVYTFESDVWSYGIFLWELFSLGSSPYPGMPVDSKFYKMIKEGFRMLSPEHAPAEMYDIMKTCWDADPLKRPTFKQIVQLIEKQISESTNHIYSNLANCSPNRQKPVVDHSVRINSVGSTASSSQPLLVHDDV
Sequence of UniProt O60331 (whole entry, looked up): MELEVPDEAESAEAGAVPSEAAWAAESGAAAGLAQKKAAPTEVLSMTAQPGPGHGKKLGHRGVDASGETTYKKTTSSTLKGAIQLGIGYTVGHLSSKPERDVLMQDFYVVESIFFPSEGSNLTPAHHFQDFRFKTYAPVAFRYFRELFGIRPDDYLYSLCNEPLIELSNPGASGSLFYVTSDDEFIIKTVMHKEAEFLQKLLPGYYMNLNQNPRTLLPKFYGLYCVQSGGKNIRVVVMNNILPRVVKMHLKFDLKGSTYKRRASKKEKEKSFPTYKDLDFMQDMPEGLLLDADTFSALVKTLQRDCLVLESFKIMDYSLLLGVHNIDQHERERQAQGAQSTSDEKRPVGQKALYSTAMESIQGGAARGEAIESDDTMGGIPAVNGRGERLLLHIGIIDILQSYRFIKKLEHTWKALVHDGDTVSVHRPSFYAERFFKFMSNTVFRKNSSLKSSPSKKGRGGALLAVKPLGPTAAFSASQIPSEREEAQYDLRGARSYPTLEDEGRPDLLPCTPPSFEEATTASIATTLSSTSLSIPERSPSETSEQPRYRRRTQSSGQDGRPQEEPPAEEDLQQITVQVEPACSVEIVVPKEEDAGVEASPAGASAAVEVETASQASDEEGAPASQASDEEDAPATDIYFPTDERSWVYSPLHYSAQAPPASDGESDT
Sequence of UniProt Q6DT37 (whole entry, looked up): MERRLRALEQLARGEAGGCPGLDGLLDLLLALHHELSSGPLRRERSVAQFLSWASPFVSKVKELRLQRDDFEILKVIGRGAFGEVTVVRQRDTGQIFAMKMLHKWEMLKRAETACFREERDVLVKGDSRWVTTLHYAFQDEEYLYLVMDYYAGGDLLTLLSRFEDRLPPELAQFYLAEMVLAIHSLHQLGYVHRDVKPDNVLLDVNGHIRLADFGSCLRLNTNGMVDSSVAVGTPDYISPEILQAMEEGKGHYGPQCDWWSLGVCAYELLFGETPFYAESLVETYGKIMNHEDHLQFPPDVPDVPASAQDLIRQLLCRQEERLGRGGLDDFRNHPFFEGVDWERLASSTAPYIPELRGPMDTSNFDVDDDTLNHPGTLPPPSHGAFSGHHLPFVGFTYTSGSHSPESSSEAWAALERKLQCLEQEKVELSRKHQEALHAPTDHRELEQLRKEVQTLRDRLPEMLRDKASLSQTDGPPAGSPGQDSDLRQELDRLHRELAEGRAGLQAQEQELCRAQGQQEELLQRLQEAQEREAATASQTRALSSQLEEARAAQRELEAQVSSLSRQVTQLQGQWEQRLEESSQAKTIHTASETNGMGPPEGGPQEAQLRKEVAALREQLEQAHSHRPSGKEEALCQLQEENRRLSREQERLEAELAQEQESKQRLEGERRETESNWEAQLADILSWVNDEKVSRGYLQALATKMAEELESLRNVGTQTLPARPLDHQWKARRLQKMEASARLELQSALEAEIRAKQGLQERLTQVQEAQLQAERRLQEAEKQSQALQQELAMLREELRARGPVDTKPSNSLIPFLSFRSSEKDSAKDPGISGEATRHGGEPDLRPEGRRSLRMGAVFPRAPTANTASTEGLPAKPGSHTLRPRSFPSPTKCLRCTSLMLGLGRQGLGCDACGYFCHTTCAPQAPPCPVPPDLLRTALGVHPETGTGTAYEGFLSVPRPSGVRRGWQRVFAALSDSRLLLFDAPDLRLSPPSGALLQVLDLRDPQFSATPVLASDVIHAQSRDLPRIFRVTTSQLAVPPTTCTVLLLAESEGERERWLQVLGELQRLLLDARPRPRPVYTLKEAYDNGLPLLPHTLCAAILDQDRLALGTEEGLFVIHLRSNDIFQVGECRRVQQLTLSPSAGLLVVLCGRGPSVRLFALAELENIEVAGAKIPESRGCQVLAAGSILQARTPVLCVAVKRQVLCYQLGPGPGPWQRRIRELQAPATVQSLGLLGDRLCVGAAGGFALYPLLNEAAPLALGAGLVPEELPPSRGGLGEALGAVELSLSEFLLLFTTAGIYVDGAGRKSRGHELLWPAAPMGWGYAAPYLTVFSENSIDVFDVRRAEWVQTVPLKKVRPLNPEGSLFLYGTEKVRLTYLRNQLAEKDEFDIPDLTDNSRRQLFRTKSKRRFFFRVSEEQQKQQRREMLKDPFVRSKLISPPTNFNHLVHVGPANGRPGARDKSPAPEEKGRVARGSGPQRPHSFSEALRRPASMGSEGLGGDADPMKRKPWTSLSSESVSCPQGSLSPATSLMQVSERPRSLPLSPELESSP

Study 1
Host: mouse
Matrix: microsomes or S9
Concentration: 2 µM
Time: 0.5 h
With `CCN(CC)C1c2cccc3cccc(c23)C1NS(=O)(=O)c1ccccc1` (stereo not drawn) the remaining compound was 1.07%.
`O=c1c2ccccc2[se]n1-c1ccc(S(=O)(=O)Nc2ccccn2)cc1` gave a remaining compound of 31.2%.
For `COc1c(O)cc2c(c1O)C(=O)c1c(cc(C)c(O)c1OC)C2=O`, the remaining compound was over 99%.
`O=C(CCc1nnc[nH]1)Nc1cc(C2CCCCCC2)[nH]n1` gave a remaining compound of 55.3%.
For `c1ccc2c(c1)nc(-c1ccsc1)n2Cc1ccsc1`, the remaining compound was 0.223%.
`c1ccc(Cn2nnc(C3(c4ccccc4)CCOCC3)n2)cc1` gave a remaining compound of 1.56%.
`Cc1cc(C)c(N2CC(=O)N(c3c(C)cc(C)cc3C)CC2=O)c(C)c1` has a remaining compound of 2.64%.
The remaining compound of `OCCN(CCO)c1ncnc2c1oc1ccc(Cl)cc12` is reported as 17.5%.
For `CCC(C)(C)C1CCc2c(sc(NC(=O)CC(C)CC(=O)O)c2C(N)=O)C1` (stereo not drawn), the remaining compound was over 99%.
For `CN(C)S(=O)(=O)CCCS(=O)(=O)N(C)Cc1ccc(Br)cc1`, the remaining compound was 2.22%.
For `CNS(=O)(=O)c1ccc(CCC(=O)N(Cc2ccc(F)cc2F)C2CCCC2)cc1`, the remaining compound was 2.29%.
The remaining compound of `COc1cc(Cl)c(C)cc1NC(=O)Cn1ncc2c(N3CCN(c4ccccn4)CC3)ncnc21` is reported as 21.2%.
For `CC(NCc1cnc2cnccn12)c1ccc2c(c1)OCO2` (stereo not drawn), the remaining compound was 31.6%.
With `CC1CCC(C)N1C(=O)c1cc(Br)nn1-c1ncccc1Cl` (stereo not drawn) the remaining compound was 3.41%.

Study 2
SMILES: CN1CCN(C(=O)c2ccc(NC(=O)Nc3ccc(N(C)c4ccnc(Nc5ccc(CS(C)(=O)=O)cc5)n4)cc3)cc2)CC1
Concentration: 1 µM
For NUAK family SNF1-like kinase 1 (NUAK1, Homo sapiens, UniProt O60285); competitive binding panel, measured: ARK5; baseline: vehicle: remaining binding read 78%.
It gave 39% for remaining binding (NUAK family SNF1-like kinase 2 (NUAK2, Homo sapiens, UniProt Q9H093); competitive binding; SNARK).
For Mitogen-activated protein kinase kinase kinase 9 (MAP3K9, Homo sapiens, UniProt P80192); competitive binding panel, measured: MLK1; baseline: vehicle: remaining binding read 86%.
LIM domain kinase 1 (LIMK1, Homo sapiens, UniProt P53667); competitive binding panel; baseline: vehicle — remaining binding: 61%.
It gave 64% for remaining binding (Serine/threonine-protein kinase MRCK gamma (CDC42BPG, Homo sapiens, UniProt Q6DT37); competitive binding panel, measured: DMPK2; baseline: vehicle).
The remaining binding was 100% (1-phosphatidylinositol 3-phosphate 5-kinase (PIKFYVE, Homo sapiens, UniProt Q9Y2I7); competitive binding panel; baseline: vehicle).
Serine/threonine-protein kinase WNK1 (WNK1, Homo sapiens, UniProt Q9H4A3); competitive binding panel; baseline: vehicle — remaining binding: 94%.
It gave 100% for remaining binding (Beta-adrenergic receptor kinase 1 (GRK2, Homo sapiens, UniProt P25098); competitive binding panel; baseline: vehicle).
The remaining binding was 100% (Cyclin-dependent kinase 19 (CDK19, Homo sapiens, UniProt Q9BWU1); competitive binding panel, measured: CDK11; baseline: vehicle).
Serine/threonine-protein kinase PLK4 (PLK4, Homo sapiens, UniProt O00444); competitive binding panel; baseline: vehicle — remaining binding: 2.7%.
For Serine/threonine-protein kinase 3 (STK3, Homo sapiens, UniProt Q13188); competitive binding panel, measured: MST2; baseline: vehicle: remaining binding read 16%.
Serine/threonine-protein kinase 10 (STK10, Homo sapiens, UniProt O94804); competitive binding; LOK — remaining binding: 0.4%.
Tyrosine-protein kinase ABL1 (ABL1, Homo sapiens, UniProt P00519, F317L); competitive binding panel; baseline: vehicle — remaining binding: 34%.

Study 3
Target: Protein kinase C epsilon type (PRKCE, Homo sapiens, UniProt Q02156)
Sequence of UniProt Q02156 (whole entry, looked up): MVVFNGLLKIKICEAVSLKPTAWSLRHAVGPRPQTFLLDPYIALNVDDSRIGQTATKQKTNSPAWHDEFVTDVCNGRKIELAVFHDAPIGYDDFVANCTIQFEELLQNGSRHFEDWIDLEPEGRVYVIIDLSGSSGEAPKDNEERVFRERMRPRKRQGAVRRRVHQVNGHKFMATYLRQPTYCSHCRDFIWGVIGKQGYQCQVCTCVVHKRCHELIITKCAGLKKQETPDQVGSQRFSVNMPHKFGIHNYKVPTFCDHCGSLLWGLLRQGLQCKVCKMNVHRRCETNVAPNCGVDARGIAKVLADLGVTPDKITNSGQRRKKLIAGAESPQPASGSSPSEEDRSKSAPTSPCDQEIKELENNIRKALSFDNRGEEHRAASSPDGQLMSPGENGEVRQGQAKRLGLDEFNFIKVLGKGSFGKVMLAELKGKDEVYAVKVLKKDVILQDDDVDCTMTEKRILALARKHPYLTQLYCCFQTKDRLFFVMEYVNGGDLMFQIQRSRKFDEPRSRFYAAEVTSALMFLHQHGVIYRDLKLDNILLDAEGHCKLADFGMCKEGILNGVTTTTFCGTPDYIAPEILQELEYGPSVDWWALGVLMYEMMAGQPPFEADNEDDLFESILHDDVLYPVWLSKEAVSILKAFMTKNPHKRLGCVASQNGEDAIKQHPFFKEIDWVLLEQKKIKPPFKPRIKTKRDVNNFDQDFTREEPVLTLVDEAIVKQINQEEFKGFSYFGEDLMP
Observed: enzyme activity
Action: inhibitor
Concentration: 0.5 µM
Baseline: control
The remaining activity of `O=C1c2ccccc2-c2nc3nnnn3nc21` is reported as 99%.
For `CCCCc1c(-c2ccc(O)cc2)[nH]c2nccnc12`, the remaining activity was 107%.
`Clc1ccc(Nc2nnc(Cc3ccncc3)c3ccccc23)cc1` has a remaining activity of 100%.
With `CC(C)N(CCC(=O)c1ccc2ccccc2c1)Cc1ccccc1` the remaining activity was 95%.
`FC(F)(F)c1ccc(/C=C/c2nc(COc3ccc(CCCCn4ccnn4)cc3)co2)cc1` gave a remaining activity of 101%.
For `Nc1nc(Nc2ccc(S(N)(=O)=O)cc2)nn1C(=S)Nc1c(F)cccc1F`, the remaining activity was 11.5%.
`NC(=O)c1cccc(-c2cc(Nc3ccc(OC(F)(F)F)cc3)ncn2)c1` has a remaining activity of 111%.
`COc1cc2c(N3CCN(C(=O)Nc4ccc(OC(C)C)cc4)CC3)ncnc2cc1OCCCN1CCCCC1` gave a remaining activity of 104%.
`N#C/C(=C(/N)SC1C=CC=CC1)c1cccc(C(O)c2ccncc2)c1` (stereo not drawn) has a remaining activity of 104%.
`O=C1NC(=O)/C(=C/c2ccc3c(c2)OC(F)(F)O3)S1` has a remaining activity of 103%.
With `O=C(c1ccccc1)c1ccc(N2CCOCC2)cc1O` the remaining activity was 92.3%.
`CCN(CC)CCCCN1c2ccccc2Oc2ccc(Cl)cc21` gave a remaining activity of 109%.
The remaining activity of `O=C(O)/C=C/c1cc(Br)c(Br)c(Br)c1Br` is reported as 88.6%.
The remaining activity of `CC(C)(C)c1nc2c3cc[nH]c(=O)c3c3cc(F)ccc3c2[nH]1` is reported as 51.4%.
For `CNc1cc2c(Nc3cccc(Br)c3)ncnc2cn1`, the remaining activity was 99.8%.
`C[C@@H](N)[C@H]1CC[C@H](C(=O)Nc2ccncc2)CC1` has a remaining activity of 40.2%.
The remaining activity of `N#CC(c1ccnc(NCCc2cccnc2)n1)c1nc2ccccc2s1` (stereo not drawn) is reported as 92.1%.
`CC(C)n1cnc2c(Nc3cccc(Cl)c3)nc(NCCO)nc21` has a remaining activity of 93.6%.
`NC(=O)c1ccc(-c2nc(-c3ccc4c(c3)OCCO4)c(-c3ccccn3)[nH]2)cc1` has a remaining activity of 93.1%.
The remaining activity of `O=c1c(-c2ccc(F)cc2)c(-c2ccncc2)[nH]n1-c1ccc(Cl)cc1` is reported as 96.7%.
`O=Nc1c(-c2c(O)[nH]c3ccccc23)[nH]c2ccccc12` has a remaining activity of 96.5%.
For `COc1cc2c(Nc3ccc(Br)cc3F)ncnc2cc1OCC1CCN(C)CC1`, the remaining activity was 100%.
`c1cc(-c2cnn3cc(-c4ccc(OCCN5CCCCC5)cc4)cnc23)ccn1` has a remaining activity of 106%.

Study 4
Compound: O=C(Nc1cccnn1)N1CC(C/C=C/c2cncc(Oc3ccc(C(F)(F)F)cn3)n2)C1
Technique: competition with immobilised ligand
Concentration: 1 µM
For Serine/threonine-protein kinase ULK1 (ULK1, Homo sapiens, UniProt O75385); cell-free assay: remaining binding read 79%.
For Phosphatidylinositol 4-phosphate 5-kinase type-1 gamma (PIP5K1C, Homo sapiens, UniProt O60331); cell-free assay: remaining binding read 100%.
It gave 78% for remaining binding (Mast/stem cell growth factor receptor Kit, autoinhibited (KIT, Homo sapiens, UniProt P10721); cell-free assay).
The remaining binding was 100% (Serine/threonine-protein kinase 32B (STK32B, Homo sapiens, UniProt Q9NY57); cell-free assay).
It gave 100% for remaining binding (Phosphatidylinositol 5-phosphate 4-kinase type-2 gamma (PIP4K2C, Homo sapiens, UniProt Q8TBX8); cell-free assay).
The remaining binding was 76% (Tyrosine-protein kinase ABL1, phosphorylated (ABL1, Homo sapiens, UniProt P00519, H396P); cell-free assay).
For Phosphatidylinositol 3-kinase C2 domain-containing subunit gamma (PIK3C2G, Homo sapiens, UniProt O75747); cell-free assay: remaining binding read 100%.
The remaining binding was 80% (Platelet-derived growth factor receptor alpha (PDGFRA, Homo sapiens, UniProt P16234); cell-free assay).
It gave 82% for remaining binding (ALK tyrosine kinase receptor (ALK, Homo sapiens, UniProt Q9UM73, L1196M); cell-free assay).
It gave 100% for remaining binding (Activin receptor type-1-like (ACVRL1, Homo sapiens, UniProt P37023); binding).
For Calcium/calmodulin-dependent protein kinase type 1G (CAMK1G, Homo sapiens, UniProt Q96NX5); cell-free assay: remaining binding read 100%.
For Serine/threonine-protein kinase MARK1 (MARK1, Homo sapiens, UniProt Q9P0L2); cell-free assay: remaining binding read 100%.
Serine/threonine-protein kinase MAK (MAK, Homo sapiens, UniProt P20794); cell-free assay — remaining binding: 100%.
It gave 100% for remaining binding (TGF-beta receptor type-1 (TGFBR1, Homo sapiens, UniProt P36897); cell-free assay).
For Myosin light chain kinase (MYLK3, Homo sapiens, UniProt Q32MK0); cell-free assay: remaining binding read 85%.
STE20-like serine/threonine-protein kinase (SLK, Homo sapiens, UniProt Q9H2G2); cell-free assay — remaining binding: 100%.
The remaining binding was 100% (Cyclin-dependent kinase 18 (CDK18, Homo sapiens, UniProt Q07002); cell-free assay).
The remaining binding was 82% (Rhodopsin kinase GRK1 (GRK1, Homo sapiens, UniProt Q15835); cell-free assay).
Cyclin-dependent kinase-like 3 (CDKL3, Homo sapiens, UniProt Q8IVW4); cell-free assay — remaining binding: 95%.
The remaining binding was 84% (Serine/threonine-protein kinase DCLK1 (DCLK1, Homo sapiens, UniProt O15075); cell-free assay).
Casein kinase I isoform gamma-3 (CSNK1G3, Homo sapiens, UniProt Q9Y6M4); cell-free assay — remaining binding: 100%.
The remaining binding was 100% (Dual specificity testis-specific protein kinase 1 (TESK1, Homo sapiens, UniProt Q15569); cell-free assay).
It gave 100% for remaining binding (Ephrin type-A receptor 4 (EPHA4, Homo sapiens, UniProt P54764); cell-free assay).
It gave 82% for remaining binding (Tyrosine-protein kinase FRK (FRK, Homo sapiens, UniProt P42685); cell-free assay).
For Ribosomal protein S6 kinase alpha-6, N-terminal kinase domain (RPS6KA6, Homo sapiens, UniProt Q9UK32); cell-free assay: remaining binding read 80%.

A few entries again (study 4):
The remaining binding was 76% (Tyrosine-protein kinase ABL1, phosphorylated (ABL1, Homo sapiens, UniProt P00519, H396P); cell-free assay).
The remaining binding was 80% (Platelet-derived growth factor receptor alpha (PDGFRA, Homo sapiens, UniProt P16234); cell-free assay).
For Phosphatidylinositol 4-phosphate 5-kinase type-1 gamma (PIP5K1C, Homo sapiens, UniProt O60331); cell-free assay: remaining binding read 100%.
For Serine/threonine-protein kinase ULK1 (ULK1, Homo sapiens, UniProt O75385); cell-free assay: remaining binding read 79%.
The remaining binding was 100% (Dual specificity testis-specific protein kinase 1 (TESK1, Homo sapiens, UniProt Q15569); cell-free assay).
It gave 78% for remaining binding (Mast/stem cell growth factor receptor Kit, autoinhibited (KIT, Homo sapiens, UniProt P10721); cell-free assay).
Casein kinase I isoform gamma-3 (CSNK1G3, Homo sapiens, UniProt Q9Y6M4); cell-free assay — remaining binding: 100%.
The remaining binding was 84% (Serine/threonine-protein kinase DCLK1 (DCLK1, Homo sapiens, UniProt O15075); cell-free assay).
It gave 100% for remaining binding (Ephrin type-A receptor 4 (EPHA4, Homo sapiens, UniProt P54764); cell-free assay).
Cyclin-dependent kinase-like 3 (CDKL3, Homo sapiens, UniProt Q8IVW4); cell-free assay — remaining binding: 95%.
It gave 100% for remaining binding (Phosphatidylinositol 5-phosphate 4-kinase type-2 gamma (PIP4K2C, Homo sapiens, UniProt Q8TBX8); cell-free assay).
Serine/threonine-protein kinase MAK (MAK, Homo sapiens, UniProt P20794); cell-free assay — remaining binding: 100%.
